Experimental data pooled from the literature.
Protocols differ between the studies behind these lines. Numbers after ± are the reported error.
ACHE: Acetylcholinesterase (ACHE, Homo sapiens, UniProt P22303)
Sequence of UniProt P22303 (whole entry, looked up): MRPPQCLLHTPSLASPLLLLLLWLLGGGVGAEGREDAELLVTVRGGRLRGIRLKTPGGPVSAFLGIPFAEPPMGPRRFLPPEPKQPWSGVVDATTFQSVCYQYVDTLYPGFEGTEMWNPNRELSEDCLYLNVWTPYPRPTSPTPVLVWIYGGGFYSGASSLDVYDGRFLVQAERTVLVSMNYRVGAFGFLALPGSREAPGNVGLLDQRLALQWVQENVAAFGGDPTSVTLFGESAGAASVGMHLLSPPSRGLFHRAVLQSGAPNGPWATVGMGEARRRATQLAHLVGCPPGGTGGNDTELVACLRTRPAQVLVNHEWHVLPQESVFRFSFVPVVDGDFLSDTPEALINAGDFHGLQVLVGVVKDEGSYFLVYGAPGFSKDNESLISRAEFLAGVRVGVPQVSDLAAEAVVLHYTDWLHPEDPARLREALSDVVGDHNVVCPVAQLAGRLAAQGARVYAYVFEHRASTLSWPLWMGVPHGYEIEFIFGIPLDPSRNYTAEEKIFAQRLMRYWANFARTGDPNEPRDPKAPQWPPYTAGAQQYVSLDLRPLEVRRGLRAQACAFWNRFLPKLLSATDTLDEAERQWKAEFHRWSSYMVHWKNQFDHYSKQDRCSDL
cas9: CRISPR-associated endonuclease Cas9/Csn1 (cas9, Streptococcus pyogenes serotype M1, UniProt Q99ZW2)
Sequence of UniProt Q99ZW2 (whole entry, looked up): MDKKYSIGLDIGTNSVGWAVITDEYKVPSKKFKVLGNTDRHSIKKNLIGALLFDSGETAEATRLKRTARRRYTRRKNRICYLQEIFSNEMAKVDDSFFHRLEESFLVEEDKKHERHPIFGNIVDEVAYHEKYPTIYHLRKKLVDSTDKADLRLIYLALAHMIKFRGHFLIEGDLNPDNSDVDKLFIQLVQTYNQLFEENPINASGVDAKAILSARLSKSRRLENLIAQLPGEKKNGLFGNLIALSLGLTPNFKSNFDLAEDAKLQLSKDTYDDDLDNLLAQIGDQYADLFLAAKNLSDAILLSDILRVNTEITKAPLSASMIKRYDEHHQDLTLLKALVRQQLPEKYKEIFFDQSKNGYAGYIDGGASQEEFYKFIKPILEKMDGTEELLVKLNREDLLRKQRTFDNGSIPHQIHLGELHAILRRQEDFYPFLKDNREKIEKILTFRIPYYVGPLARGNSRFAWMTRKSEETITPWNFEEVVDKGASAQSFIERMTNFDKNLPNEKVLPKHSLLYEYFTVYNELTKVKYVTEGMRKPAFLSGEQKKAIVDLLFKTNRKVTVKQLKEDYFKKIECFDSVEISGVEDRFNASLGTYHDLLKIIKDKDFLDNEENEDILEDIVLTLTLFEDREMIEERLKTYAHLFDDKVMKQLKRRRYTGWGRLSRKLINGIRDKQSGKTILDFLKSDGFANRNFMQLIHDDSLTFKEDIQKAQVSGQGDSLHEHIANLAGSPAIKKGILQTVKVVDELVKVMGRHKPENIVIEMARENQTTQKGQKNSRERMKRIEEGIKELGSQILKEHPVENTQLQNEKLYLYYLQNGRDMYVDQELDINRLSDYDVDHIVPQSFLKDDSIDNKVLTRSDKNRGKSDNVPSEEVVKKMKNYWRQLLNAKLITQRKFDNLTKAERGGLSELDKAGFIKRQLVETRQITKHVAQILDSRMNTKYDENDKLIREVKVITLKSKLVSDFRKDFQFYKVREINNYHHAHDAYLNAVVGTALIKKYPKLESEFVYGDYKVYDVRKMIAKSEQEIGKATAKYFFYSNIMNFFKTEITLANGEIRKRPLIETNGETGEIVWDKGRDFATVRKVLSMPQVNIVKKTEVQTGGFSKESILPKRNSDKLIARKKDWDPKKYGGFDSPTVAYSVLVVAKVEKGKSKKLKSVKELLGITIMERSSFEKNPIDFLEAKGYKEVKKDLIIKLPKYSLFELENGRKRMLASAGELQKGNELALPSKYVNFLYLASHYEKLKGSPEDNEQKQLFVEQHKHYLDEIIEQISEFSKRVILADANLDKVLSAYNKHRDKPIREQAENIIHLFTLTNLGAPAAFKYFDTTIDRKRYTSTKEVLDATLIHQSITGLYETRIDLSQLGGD
HLA class I histocompatibility antigen, B alpha chain allele B*18:01: HLA class I histocompatibility antigen, B alpha chain, allele B*18:01 (Homo sapiens, UniProt P01889)
CYP2E1: Cytochrome P450 2E1 (CYP2E1, Homo sapiens, UniProt P05181)
Sequence of UniProt P05181 (whole entry, looked up): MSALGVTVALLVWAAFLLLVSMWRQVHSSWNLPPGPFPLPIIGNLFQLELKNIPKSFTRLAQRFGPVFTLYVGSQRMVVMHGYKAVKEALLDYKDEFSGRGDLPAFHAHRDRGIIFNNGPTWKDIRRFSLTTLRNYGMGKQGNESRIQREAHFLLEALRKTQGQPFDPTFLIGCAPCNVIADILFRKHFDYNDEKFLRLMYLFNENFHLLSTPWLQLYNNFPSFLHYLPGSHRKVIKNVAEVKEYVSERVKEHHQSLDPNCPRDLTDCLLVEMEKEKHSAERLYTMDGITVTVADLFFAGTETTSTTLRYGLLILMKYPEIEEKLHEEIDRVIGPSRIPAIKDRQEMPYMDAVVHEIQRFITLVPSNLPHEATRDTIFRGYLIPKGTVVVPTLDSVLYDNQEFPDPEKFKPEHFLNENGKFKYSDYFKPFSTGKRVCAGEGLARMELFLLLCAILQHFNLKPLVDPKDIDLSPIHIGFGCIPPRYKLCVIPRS
Neuronal acetylcholine receptor; alpha9/alpha10: Neuronal acetylcholine receptor; alpha9/alpha10 (Homo sapiens, UniProt Q9GZZ6+Q9UGM1)
Sequence of UniProt Q9UGM1 (whole entry, looked up): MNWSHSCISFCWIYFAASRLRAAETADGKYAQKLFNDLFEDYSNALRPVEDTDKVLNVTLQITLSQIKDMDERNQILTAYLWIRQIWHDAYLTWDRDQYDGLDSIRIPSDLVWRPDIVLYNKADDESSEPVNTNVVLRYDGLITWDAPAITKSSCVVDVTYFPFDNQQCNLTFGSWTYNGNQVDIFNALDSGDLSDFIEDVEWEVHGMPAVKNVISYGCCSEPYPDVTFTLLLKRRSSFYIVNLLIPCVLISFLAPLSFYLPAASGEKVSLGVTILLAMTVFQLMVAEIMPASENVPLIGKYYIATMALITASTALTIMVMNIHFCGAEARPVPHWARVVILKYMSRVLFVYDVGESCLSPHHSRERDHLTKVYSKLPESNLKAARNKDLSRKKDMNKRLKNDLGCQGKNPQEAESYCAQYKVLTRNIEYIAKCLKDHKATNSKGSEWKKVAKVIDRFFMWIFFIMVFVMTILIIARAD
Sequence of UniProt Q9GZZ6 (whole entry, looked up): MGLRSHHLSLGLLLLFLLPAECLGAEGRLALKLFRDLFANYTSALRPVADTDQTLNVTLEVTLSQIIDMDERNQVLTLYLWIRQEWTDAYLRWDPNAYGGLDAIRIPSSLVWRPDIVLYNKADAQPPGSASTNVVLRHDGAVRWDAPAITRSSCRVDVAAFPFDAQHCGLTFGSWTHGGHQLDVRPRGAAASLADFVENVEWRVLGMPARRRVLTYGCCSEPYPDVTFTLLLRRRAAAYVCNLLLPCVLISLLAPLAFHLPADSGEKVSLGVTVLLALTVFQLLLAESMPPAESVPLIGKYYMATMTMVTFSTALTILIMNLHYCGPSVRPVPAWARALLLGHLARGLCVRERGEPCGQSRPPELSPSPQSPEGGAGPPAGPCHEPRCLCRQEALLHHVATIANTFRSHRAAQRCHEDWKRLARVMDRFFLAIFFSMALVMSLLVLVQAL
Protein kinase 6: Protein kinase 6 (Plasmodium falciparum, UniProt Q8IDW1)
Sequence of UniProt P08069 (whole entry, looked up): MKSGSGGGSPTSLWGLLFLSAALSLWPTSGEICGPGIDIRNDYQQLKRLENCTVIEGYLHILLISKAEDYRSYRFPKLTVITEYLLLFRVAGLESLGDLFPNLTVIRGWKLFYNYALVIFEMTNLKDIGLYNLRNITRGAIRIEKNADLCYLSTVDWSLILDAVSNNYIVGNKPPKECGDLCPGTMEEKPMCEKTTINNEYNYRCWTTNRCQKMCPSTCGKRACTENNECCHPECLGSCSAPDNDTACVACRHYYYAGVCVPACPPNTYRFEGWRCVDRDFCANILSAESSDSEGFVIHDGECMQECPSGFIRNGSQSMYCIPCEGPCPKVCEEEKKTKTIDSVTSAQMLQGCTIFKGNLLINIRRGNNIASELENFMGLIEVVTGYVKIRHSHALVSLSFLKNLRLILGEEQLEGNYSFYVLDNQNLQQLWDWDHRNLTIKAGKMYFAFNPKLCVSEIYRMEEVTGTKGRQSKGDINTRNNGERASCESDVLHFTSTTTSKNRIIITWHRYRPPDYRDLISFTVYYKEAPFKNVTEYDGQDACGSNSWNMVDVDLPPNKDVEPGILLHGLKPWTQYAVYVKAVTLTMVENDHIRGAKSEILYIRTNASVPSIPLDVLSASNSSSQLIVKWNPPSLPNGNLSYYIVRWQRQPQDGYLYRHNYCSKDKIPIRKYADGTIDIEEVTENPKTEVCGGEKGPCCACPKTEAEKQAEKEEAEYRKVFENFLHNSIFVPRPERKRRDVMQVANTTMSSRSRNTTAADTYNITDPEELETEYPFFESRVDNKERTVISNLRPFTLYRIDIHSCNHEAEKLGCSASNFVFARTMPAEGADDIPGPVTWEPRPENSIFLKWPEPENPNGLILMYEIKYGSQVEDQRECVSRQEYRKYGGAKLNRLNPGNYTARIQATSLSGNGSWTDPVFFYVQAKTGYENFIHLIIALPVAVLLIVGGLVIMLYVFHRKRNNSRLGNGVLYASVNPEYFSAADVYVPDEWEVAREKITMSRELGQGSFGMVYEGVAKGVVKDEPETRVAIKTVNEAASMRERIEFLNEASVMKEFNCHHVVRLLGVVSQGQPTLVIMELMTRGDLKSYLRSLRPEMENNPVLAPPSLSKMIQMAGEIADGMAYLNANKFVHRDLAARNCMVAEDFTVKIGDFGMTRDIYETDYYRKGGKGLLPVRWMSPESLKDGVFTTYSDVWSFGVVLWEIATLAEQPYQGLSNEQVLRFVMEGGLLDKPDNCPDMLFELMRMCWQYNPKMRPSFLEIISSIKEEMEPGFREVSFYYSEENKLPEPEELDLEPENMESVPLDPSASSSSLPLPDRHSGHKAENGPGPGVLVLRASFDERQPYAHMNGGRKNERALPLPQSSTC
Sequence of UniProt P20618 (whole entry, looked up): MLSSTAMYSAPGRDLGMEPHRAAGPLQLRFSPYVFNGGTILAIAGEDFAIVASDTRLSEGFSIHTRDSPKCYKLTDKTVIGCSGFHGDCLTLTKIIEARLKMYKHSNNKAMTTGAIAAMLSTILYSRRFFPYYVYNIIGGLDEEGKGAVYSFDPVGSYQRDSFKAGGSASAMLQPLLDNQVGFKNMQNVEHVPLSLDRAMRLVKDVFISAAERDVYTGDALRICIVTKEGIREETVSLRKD

`COc1cc(Nc2ncc(F)c(Nc3ccc4c(n3)NC(=O)C(C)(C)O4)n2)cc(OC)c1OC` has an IC50 of over 10 µM (Interleukin-6 receptor subunit alpha (IL6R, Homo sapiens, UniProt P08887)).
`NCCOCC(=O)N1CCCC(C(=O)NCc2nc(-c3ccc(-c4ccc(F)cc4)cc3)cs2)C1` (centres unmarked) has an IC50 of over 30 µM (PSMB1/PSMB8/PSMB3 (Homo sapiens, UniProt P20618+P28062+P49720)).
`Cc1ccc(S(=O)(=O)Oc2ccc3c(c2)Oc2nc4c(c(N)c2C3c2ccc(Cl)c(Cl)c2)CCCC4)cc1` (centres unmarked) gave an IC50 of 0.476 µM (ACHE; enzyme activity, inhibitor).
With `CNC(C)Cc1ccc2n[se]nc2c1` (centres unmarked) the IC50 was 16.4 ± 2.8 µM (Solute carrier family 22 member 1 (SLC22A1, Homo sapiens, UniProt O15245)).
With `Nc1c2c(nc3c1C(c1cccc(Br)c1)c1ccc(O)cc1O3)CCCC2` (centres unmarked) the IC50 was 3.49 µM (ACHE; enzyme activity, inhibitor).
`O=C(O[C@@H]1Cc2c(O)cc(O)cc2O[C@@H]1c1cc(O)c(O)c(O)c1)c1cc(O)c(O)c(O)c1` has an IC50 of 20 to 50 µM (cas9; linear substrate; Streptococcus pyogenes).
`CC(=O)N1C[C@@H](CCN2CC=C(c3c[nH]c4cc(Cl)ccc34)CC2)c2ccccc21` has an IC50 of 1.58 µM (Sodium-dependent serotonin transporter (SLC6A4, Homo sapiens, UniProt P31645, R104E)).
`CC(C)C[C@H](NC(=O)[C@H](CCC(N)=O)NC(=O)[C@H](Cc1ccccc1)NC(=O)[C@H](C)NC(=O)[C@H](CCCCN)NC(=O)[C@H](CC(=O)O)NC(=O)[C@H](CCC(=O)O)NC(=O)[C@H](CC(C)C)NC(=O)[C@@H](N)CO)C(=O)O` gave an IC50 of over 70 µM (HLA class I histocompatibility antigen, B alpha chain allele B*18:01; peptide-MHC binding, radioligand competition binding).
`CCN(CC)C(=O)C1CN2CCc3cc(OC)c(OC)cc3C2CC1OC(C)=O` (centres unmarked) gave an IC50 of 0.89 µM (Alpha-2B adrenergic receptor (ADRA2B, Homo sapiens, UniProt P18089); inhibitor).
With `COc1cccc2c1C(=O)c1c(O)c3c(c(O)c1C2=O)C[C@@](O)(C(C)=O)C[C@@H]3O[C@H]1C[C@H](N)[C@H](O)[C@H](C)O1` the IC50 was 50 to 100 µM (cas9; circular plasmid substrate; Streptococcus pyogenes).
With `CCC(C(=O)Nc1cc(NC2CCNCC2)ccc1C)n1cc(Cl)cc2nc(SCc3ccc(F)cc3)nc1-2` (centres unmarked) the IC50 was over 100 µM (Calpain-1 catalytic subunit (CAPN1, Homo sapiens, UniProt P07384); enzyme activity).
`C[n+]1c2cc(N)ccc2cc2ccc(N)cc21` has an IC50 of 10 to 20 µM (cas9; linear substrate; Streptococcus pyogenes).
The IC50 of `CCC(C(=O)Nc1sc(C(N)=O)c(C)c1C(=O)OC)c1ccc(F)cc1` (centres unmarked) is reported as over 100 µM (DNA polymerase processivity factor, with UL42 processivity factor (Human herpesvirus 1, UniProt P10226); inhibitor).
The IC50 of `N[C@@H](Cc1cc(I)c(O)c(I)c1)C(=O)O` is reported as 40 µM (CYP2E1; p-nitrophenol hydroxylation, inhibitor; baculosomes; 10 min, with additive 100 µM).
For `COc1ccc(S(=O)(=O)Oc2ccc3c(c2)Oc2nc4c(c(N)c2C3c2ccccc2OC)CCCC4)cc1` (centres unmarked), the IC50 was 5.17 µM (ACHE; enzyme activity, inhibitor).
For `CC(C)(C)NC(=O)N[C@H](C(=O)N1C[C@H]2[C@@H]([C@H]1C(=O)NC(CC1CCC1)C(=O)C(N)=O)C2(C)C)C(C)(C)C` (some centres unmarked), the IC50 was 4.52 µM (Chymase (CMA1, Homo sapiens, UniProt P23946); enzyme activity, inhibitor; added: FP-biotin 1 µM).
`COc1cc(NS(C)(=O)=O)ccc1Nc1c2ccccc2nc2ccccc12` has an IC50 of 100 to 200 µM (cas9; circular plasmid substrate; Streptococcus pyogenes).
For `OC(CN1CCNCC1)Cn1c2ccccc2c2ccccc21` (centres unmarked), the IC50 was 21 µM (Apoptosis regulator BAX (BAX, Homo sapiens, UniProt Q07812); membrane permeabilization, inhibitor, liposome release; 400 nM BAX, added: 30 nM tBID).
With `COCCCC/C(=N\OCCN)c1ccc(C(F)(F)F)cc1` the IC50 was 0.76 ± 0.27 µM (Neuronal acetylcholine receptor; alpha9/alpha10; inhibitor).
The IC50 of `C=CC(=O)OCCCC` is reported as over 50 µM (uncharacterized protein (Bradysia odoriphaga, UniProt A0A2S0X9G4); binding, competitive fluorescence displacement; pH 7.4).
With `CC[C@H](C)[C@H](NC(=O)[C@@H]1CCCN1C(=O)[C@@H](NC(=O)[C@H](CC(C)C)NC(=O)[C@H](CCC(N)=O)NC(=O)[C@H](Cc1ccccc1)NC(=O)[C@H](C)NC(=O)[C@@H](N)CCCCN)[C@@H](C)O)C(=O)N[C@@H](C)C(=O)N[C@H](C(=O)O)C(C)C` the IC50 was 3.87 µM (HLA class I histocompatibility antigen, B alpha chain allele B*18:01; peptide-MHC binding, radioligand competition binding).
For `NS(=O)(=O)NCCNc1nonc1C(=NO)Nc1ccc(F)c(Br)c1`, the IC50 was over 50 µM (Tryptophan 2,3-dioxygenase (TDO2, Homo sapiens, UniProt P48775); enzyme activity, inhibitor).
For `COc1cc(OC)c(OC)cc1C=O`, the IC50 was 510 µM (Prostaglandin G/H synthase 2 (PTGS2, Homo sapiens, UniProt P35354); inhibitor).
`CC[C@H](C)[C@H](NC(=O)[C@@H](N)CCC(=O)O)C(=O)N[C@@H](CCCCN)C(=O)N[C@@H](CCC(=O)O)C(=O)N[C@@H](CO)C(=O)N[C@H](C(=O)N[C@@H](CCC(N)=O)C(=O)N[C@H](C(=O)N[C@@H](Cc1ccccc1)C(=O)O)[C@@H](C)O)C(C)C` has an IC50 of over 70 µM (HLA class I histocompatibility antigen, B alpha chain allele B*18:01; peptide-MHC binding, radioligand competition binding).
With `C[C@H](CCC(=O)O)[C@H]1CC[C@H]2[C@@H]3[C@@H](O)C[C@@H]4C[C@H](O)CC[C@]4(C)[C@H]3CC[C@]12C` the IC50 was 2.46 µM (Gag polyprotein, nucleocapsid protein p7 (gag, Human immunodeficiency virus type 1 group M subtype B, UniProt P04591); NCp7-RNA binding, AlphaScreen; HIV-1; added: 25 nM NCp7, 12.5 nM RNA).
The IC50 of `CC(C)C[C@H](NC(=O)[C@H](CO)NC(=O)[C@H](CO)NC(=O)[C@H](Cc1ccccc1)NC(=O)[C@H](CCC(=O)O)NC(=O)[C@@H](N)CO)C(=O)N1CCC[C@H]1C(=O)N[C@@H](CO)C(=O)N[C@@H](Cc1ccc(O)cc1)C(=O)O` is reported as over 70 µM (HLA class I histocompatibility antigen, B alpha chain (Homo sapiens, UniProt P01889); peptide-MHC binding, radioligand competition binding).
`Nc1ccn([C@@H]2O[C@H](COP(=O)(O)OP(=O)(O)OP(=O)(O)O)[C@@H](O)[C@H]2O)c(=O)n1` gave an IC50 of 131 ± 20 µM (pyrG (Escherichia coli, UniProt P0A7E5, C268A); enzyme activity; added: 6.0 mM glutamine, 1.0 mM ATP, 0.05 mM UTP).
`CCN1CCN(Cc2ccc(Nc3nc4ccc(Oc5ccnc(NC(C)=O)c5)c5c4n3CCC5)cc2C(F)(F)F)CC1` gave an IC50 of 0.7 ± 0.2 µM (Protein kinase 6; enzyme activity, inhibitor).
`COc1cc(C(=O)N2CC[C@@H](O)[C@@H](N)C2)cc2nc(-c3cc4ccccc4n3CC3CC3)n(C)c12` has an IC50 of 7.94 µM (Solute carrier organic anion transporter family member 1B1 (SLCO1B1, Homo sapiens, UniProt Q9Y6L6); transport, inhibitor, imaging).
With `C[C@H]1CN(c2n[nH]c3nc(N[C@H]4CC[C@H](NS(=O)(=O)CCC(F)(F)F)CC4)ncc23)CCO1` the IC50 was at least 20 µM (Insulin-like growth factor 1 receptor (IGF1R, Homo sapiens, UniProt P08069); biochemical).
With `CCN1CCN(Cc2ccc(Nc3nc4cc(Oc5ccnc(NC(C)=O)c5)ccc4n3C)cc2C(F)(F)F)CC1` the IC50 was 29.8 ± 0.4 µM (Protein kinase 6; enzyme activity, inhibitor).
For `CCCCCCCCOc1ccccc1C(=O)Nc1ccc(C(=O)OCC[N+](C)(CC)CC)cc1`, the IC50 was 0.045 ± 0.002 µM (Neuronal acetylcholine receptor; alpha9/alpha10; inhibitor).
`C[C@H]1COCCN1c1nc(NCc2cccnc2C(F)(F)F)c2cccnc2n1` has an IC50 of over 33 µM (Potassium voltage-gated channel subfamily KQT member 1, with KCNE1 (KCNQ1, Homo sapiens, UniProt P51787); inhibitor).
`CCCCCCCCOc1ccccc1C(=O)Nc1ccc(C(=O)OCC[N+](C)(CC)CC)cc1` has an IC50 of 20 to 50 µM (cas9; linear substrate; Streptococcus pyogenes).
The IC50 of `S=C=NCCc1ccccc1` is reported as 1.2 µM (CYP2E1; enzyme activity, inhibitor; 30 min, pH 7.4).
